Published values from different studies.
Parts stem from different laboratories: compare values within a part only.

Series 1 — method: RNA Bind-n-Seq; form: RNA; sample: in vitro; concentration: 365 nM; baseline: no-protein control; reading: higher = stronger binding
Target: RNA binding protein fox-1 homolog 2, RRM domain, GST-SBP tag (RBFOX2, Homo sapiens, UniProt O43251-10, residues 100-194)
Notes: natural RNA segment, single round, ends assumed
`GGGAGUUCUACAGUCCGACGAUCCUGCACCUUCCUUUCUUCCACAAACACAUAUUGAUAGAUGCAAGAGACUCUUAUUUAGAAGGCGUGGGGGACAAGAAGGAUACAAGGUAAGUUUCAGUGGAGCUCAGAGGUGGAAUUCUCGGGUGCCAA`: “RBNS enrichment (R)” 0.704.
`GGGAGUUCUACAGUCCGACGAUCUUUAUGUGGUUUAUUCCUGCAAGGUUGUUUUAAACUGAAAUAGAACUGCUAGUGUGAUUGGUUGAUCAGCAAAACAGCUGCUCUCAUUUUGUUUUGGAGGAACCCUGGUGUGGAAUUCUCGGGUGCCAA` — result for “RBNS enrichment (R)”: 1.55.
`GGGAGUUCUACAGUCCGACGAUCUAUUUAUCUUGUACAUAUGUAUUUUGAAAUCUUUUAAACCUGAAAAAUAAAUAGUCAUUUAAUGUUGGUAUGUGUUUAUCCUGAAUGUGUGUCUGGGAGUAAACUGGCCAUGGAAUUCUCGGGUGCCAA` — result for “RBNS enrichment (R)”: 1.24.
`GGGAGUUCUACAGUCCGACGAUCGACUUUCCCAUUCUCAGCUGAGGUUGGAAGAAACCACUCUGGGUGUCCUUUCUGGGACCUGUCUGCAUAACCCUCCCCAUCCUGGCUCUCCUGCAUCUUCUUACCCUUUAUGGAAUUCUCGGGUGCCAA` — result for “RBNS enrichment (R)”: 0.903.

Series 2 — method: aptamer microarray, sandwich; form: DNA with 2'F-ANA; sample: in vitro; concentration: 200 nM; added: Cy3 exosite-II aptamer, 400 nM; reading: higher = stronger binding
Target: Prothrombin, mature alpha-thrombin (F2, Homo sapiens, UniProt P00734)
Notes: whole 15-mer aptamer, many near background
Under “mean fluorescence intensity”, `GGTTGGTGTGGTTGG (2'F-ANA at 1 2 3 6 8 9 10 11 12)` is recorded as 75.7 a.u.
`GGTTGGTGTGGTTGG (2'F-ANA at 1 4 5 7 11 12 13 14 15)` — result for “mean fluorescence intensity”: 44.4 a.u.
Under “mean fluorescence intensity”, `GGTTGGTGTGGTTGG (2'F-ANA at 5 6 7 8 10 12 13 14 15)` is recorded as 55.3 a.u.
`GGTTGGTGTGGTTGG (2'F-ANA at 3 5 6 11 12)`: “mean fluorescence intensity” 271 a.u.

Series 3 — method: RNA Bind-n-Seq; form: RNA; sample: in vitro; concentration: 20 nM; notes: 6-mer, flanks averaged, single round; added: 150 mM KCl; baseline: input library; reading: higher = stronger binding
Target: TAR DNA-binding protein 43, full length, His tag (TARDBP, Homo sapiens, UniProt Q13148, residues 1-414)
For `UUCUAA`, “6-mer enrichment (R)” read 0.602.
`ACGUAA` — result for “6-mer enrichment (R)”: 0.628.
`UCAUAA`: “6-mer enrichment (R)” 0.612.

Other studies, line by line
The fold induction of `PhoQ, residues 284 288 289 292 302 303 SVHLDV` is reported as 8.3 (PhoP, residues 12 14 15 18 19 VQGLL (Escherichia coli, UniProt P23836); Sort-seq, refers to: YFP reporter; E. coli; PhoQ-PhoP variant library, added: 10 µM Mg2+; baseline: high Mg2+ state, higher = stronger signaling).

Repeated from above (series 1):
`GGGAGUUCUACAGUCCGACGAUCUUUAUGUGGUUUAUUCCUGCAAGGUUGUUUUAAACUGAAAUAGAACUGCUAGUGUGAUUGGUUGAUCAGCAAAACAGCUGCUCUCAUUUUGUUUUGGAGGAACCCUGGUGUGGAAUUCUCGGGUGCCAA` — result for “RBNS enrichment (R)”: 1.55.
`GGGAGUUCUACAGUCCGACGAUCUAUUUAUCUUGUACAUAUGUAUUUUGAAAUCUUUUAAACCUGAAAAAUAAAUAGUCAUUUAAUGUUGGUAUGUGUUUAUCCUGAAUGUGUGUCUGGGAGUAAACUGGCCAUGGAAUUCUCGGGUGCCAA` — result for “RBNS enrichment (R)”: 1.24.
